Assay results gathered from unrelated publications.
Each numbered part is a random draw from the data of one study; scales do not carry over between parts.
Sequence of UniProt Q96SB4 (whole entry, looked up): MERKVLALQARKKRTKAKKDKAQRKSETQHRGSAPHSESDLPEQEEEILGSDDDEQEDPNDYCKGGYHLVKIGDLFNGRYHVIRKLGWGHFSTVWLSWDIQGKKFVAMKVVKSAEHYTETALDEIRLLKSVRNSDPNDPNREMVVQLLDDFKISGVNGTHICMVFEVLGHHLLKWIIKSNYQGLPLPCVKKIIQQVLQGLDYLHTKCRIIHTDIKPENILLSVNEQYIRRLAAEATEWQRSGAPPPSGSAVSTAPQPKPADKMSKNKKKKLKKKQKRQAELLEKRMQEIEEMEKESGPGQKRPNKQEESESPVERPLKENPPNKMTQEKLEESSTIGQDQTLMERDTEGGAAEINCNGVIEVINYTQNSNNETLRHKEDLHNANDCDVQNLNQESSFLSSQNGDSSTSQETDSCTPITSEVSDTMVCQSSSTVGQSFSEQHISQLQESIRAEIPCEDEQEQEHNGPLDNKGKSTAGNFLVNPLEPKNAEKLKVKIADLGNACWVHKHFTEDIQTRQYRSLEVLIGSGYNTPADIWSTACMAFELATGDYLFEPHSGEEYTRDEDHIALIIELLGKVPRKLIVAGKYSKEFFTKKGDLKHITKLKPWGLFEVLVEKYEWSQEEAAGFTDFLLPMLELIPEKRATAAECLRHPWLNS
Sequence of UniProt Q00532 (whole entry, looked up): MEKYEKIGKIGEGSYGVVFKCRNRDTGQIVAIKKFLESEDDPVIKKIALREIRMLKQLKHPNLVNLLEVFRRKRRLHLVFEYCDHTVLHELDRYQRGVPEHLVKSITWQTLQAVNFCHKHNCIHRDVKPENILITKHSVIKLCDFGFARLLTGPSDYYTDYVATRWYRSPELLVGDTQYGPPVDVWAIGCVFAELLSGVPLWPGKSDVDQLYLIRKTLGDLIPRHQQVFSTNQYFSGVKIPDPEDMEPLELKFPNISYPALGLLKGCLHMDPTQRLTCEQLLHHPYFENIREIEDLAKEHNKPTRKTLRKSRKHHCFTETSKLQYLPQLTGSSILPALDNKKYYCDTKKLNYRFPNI
Sequence of UniProt Q15375 (whole entry, looked up): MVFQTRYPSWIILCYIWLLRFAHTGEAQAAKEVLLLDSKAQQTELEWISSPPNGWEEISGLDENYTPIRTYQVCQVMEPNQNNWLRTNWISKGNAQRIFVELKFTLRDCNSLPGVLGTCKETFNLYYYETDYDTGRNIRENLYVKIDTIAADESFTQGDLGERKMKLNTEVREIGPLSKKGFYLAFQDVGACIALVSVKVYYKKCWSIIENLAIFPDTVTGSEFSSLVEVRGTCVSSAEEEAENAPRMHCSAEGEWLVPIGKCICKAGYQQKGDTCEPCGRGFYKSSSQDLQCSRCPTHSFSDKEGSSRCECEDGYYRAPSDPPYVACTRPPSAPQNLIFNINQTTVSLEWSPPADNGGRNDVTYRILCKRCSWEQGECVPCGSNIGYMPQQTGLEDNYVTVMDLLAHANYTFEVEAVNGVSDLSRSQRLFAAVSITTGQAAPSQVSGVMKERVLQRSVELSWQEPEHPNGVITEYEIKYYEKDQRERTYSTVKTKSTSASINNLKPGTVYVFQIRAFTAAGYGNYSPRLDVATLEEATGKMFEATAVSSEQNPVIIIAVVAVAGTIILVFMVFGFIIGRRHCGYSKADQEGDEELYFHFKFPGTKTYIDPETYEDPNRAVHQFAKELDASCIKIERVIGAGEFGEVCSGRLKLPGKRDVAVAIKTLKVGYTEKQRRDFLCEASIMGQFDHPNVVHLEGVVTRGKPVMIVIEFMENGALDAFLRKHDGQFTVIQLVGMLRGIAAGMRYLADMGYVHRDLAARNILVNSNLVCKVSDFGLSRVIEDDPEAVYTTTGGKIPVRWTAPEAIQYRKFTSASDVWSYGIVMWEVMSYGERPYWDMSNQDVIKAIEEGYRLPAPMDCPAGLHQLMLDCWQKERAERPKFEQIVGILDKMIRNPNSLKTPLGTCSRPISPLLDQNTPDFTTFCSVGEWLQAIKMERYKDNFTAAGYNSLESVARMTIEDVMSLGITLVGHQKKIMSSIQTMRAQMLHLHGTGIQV
Sequence of UniProt Q56UN5 (whole entry, looked up): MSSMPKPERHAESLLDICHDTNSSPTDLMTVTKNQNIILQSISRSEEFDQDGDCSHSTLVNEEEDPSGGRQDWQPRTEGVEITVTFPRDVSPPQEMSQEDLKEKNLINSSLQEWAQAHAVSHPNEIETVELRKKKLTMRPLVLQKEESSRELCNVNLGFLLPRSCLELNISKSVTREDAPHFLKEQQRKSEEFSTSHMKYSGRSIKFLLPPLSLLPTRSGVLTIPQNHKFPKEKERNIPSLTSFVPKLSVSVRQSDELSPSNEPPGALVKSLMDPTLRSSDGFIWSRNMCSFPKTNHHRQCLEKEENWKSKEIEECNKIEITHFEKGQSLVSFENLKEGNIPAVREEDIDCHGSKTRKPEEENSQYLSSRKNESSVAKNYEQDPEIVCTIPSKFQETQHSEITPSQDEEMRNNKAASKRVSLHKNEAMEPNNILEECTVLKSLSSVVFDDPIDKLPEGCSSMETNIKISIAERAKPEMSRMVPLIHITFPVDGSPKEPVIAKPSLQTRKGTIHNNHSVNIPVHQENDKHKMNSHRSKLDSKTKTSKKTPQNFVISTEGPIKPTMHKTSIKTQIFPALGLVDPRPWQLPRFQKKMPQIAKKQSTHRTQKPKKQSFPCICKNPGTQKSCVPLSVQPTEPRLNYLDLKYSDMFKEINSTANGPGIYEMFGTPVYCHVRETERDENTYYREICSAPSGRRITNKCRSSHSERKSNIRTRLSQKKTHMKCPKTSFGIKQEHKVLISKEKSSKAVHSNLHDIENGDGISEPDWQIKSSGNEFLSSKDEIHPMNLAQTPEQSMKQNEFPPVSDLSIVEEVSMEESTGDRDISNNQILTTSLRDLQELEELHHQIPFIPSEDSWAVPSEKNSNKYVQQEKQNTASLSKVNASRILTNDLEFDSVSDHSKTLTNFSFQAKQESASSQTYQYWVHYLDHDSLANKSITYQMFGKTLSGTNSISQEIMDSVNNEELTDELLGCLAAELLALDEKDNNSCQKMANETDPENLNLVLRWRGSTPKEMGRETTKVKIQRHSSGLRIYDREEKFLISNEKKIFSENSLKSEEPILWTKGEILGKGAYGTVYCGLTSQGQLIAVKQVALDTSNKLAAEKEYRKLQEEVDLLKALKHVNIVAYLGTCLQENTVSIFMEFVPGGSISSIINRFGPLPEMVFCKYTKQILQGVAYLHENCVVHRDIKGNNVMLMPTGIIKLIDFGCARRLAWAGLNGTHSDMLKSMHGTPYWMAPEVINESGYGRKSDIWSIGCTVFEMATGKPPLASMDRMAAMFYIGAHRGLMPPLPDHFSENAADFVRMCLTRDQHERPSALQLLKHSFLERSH
Sequence of UniProt Q52WX2 (whole entry, looked up): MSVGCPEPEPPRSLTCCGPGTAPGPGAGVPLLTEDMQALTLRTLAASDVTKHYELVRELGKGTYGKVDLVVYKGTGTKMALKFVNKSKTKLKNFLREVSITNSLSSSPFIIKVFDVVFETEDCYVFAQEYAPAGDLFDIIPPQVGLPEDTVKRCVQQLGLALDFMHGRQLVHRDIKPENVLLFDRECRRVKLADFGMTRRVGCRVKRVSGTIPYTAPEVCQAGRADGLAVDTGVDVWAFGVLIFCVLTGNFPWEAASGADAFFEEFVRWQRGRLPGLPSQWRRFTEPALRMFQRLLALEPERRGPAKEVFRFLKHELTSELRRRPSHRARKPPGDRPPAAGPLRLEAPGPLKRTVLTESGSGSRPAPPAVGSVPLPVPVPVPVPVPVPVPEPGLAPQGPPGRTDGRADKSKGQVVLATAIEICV

Set 1
SMILES: Cc1c(NC(=O)c2cc(C(N)=O)nc3cc(F)ccc23)c(C(F)(F)F)nn1Cc1ccc(C#N)cc1
Technique: competition with immobilised ligand
Concentration: 1 µM
The remaining binding was 100% (Ribosomal protein S6 kinase alpha-4, N-terminal kinase domain (RPS6KA4, Homo sapiens, UniProt O75676); cell-free assay).
The remaining binding was 83% (SRPK1 (Homo sapiens, UniProt Q96SB4); cell-free assay).
It gave 100% for remaining binding (SIK2 (Homo sapiens, UniProt Q9H0K1); cell-free assay).
CSNK1D (Homo sapiens, UniProt P48730); cell-free assay — remaining binding: 76%.
The remaining binding was 78% (ERN1 (Homo sapiens, UniProt O75460); cell-free assay).
It gave 79% for remaining binding (STK10 (Homo sapiens, UniProt O94804); cell-free assay).
MAPK11 (Homo sapiens, UniProt Q15759); cell-free assay — remaining binding: 88%.
For MAP3K19 (Homo sapiens, UniProt Q56UN5); cell-free assay: remaining binding read 72%.
For EPHA7 (Homo sapiens, UniProt Q15375); cell-free assay: remaining binding read 86%.
It gave 75% for remaining binding (SBK1 (Homo sapiens, UniProt Q52WX2); cell-free assay).
For BMP2K (Homo sapiens, UniProt Q9NSY1); cell-free assay: remaining binding read 96%.
It gave 82% for remaining binding (CDKL1 (Homo sapiens, UniProt Q00532); binding).
The remaining binding was 91% (MET (Homo sapiens, UniProt P08581, M1250T); cell-free assay).
It gave 100% for remaining binding (NEK5 (Homo sapiens, UniProt Q6P3R8); cell-free assay).
The remaining binding was 89% (BMPR2 (Homo sapiens, UniProt Q13873); cell-free assay).
For TAOK3 (Homo sapiens, UniProt Q9H2K8); cell-free assay: remaining binding read 79%.
FLT3 (Homo sapiens, UniProt P36888, D835H); cell-free assay — remaining binding: 100%.
For CDK17 (Homo sapiens, UniProt Q00537); cell-free assay: remaining binding read 92%.

Set 2
Species: human
Sample: microsomes or S9
Concentration: 2 µM
Time: 0.5 h
The remaining compound of `Cc1cnc(C(=O)Nc2cc(Cl)c(Cl)c(Cl)c2)cn1` is reported as 18.2%.
`CCCc1nc(N(C)Cc2cc(-c3ccccc3)n[nH]2)c2cnn(C)c2n1` has a remaining compound of 41.1%.
With `Cn1c2c(c(=O)c3cc(Oc4ccccc4)ccc31)CCC2` the remaining compound was 13%.
`Nc1ccc(Oc2ccnc3ccsc23)c(F)c1` gave a remaining compound of 46.8%.
`CCCN1C(=O)c2c(C(=O)NCc3ccc(N(C)C)cc3)ncn2CC1(C)C(=O)NCc1ccc(F)cc1` (centres unmarked) has a remaining compound of 25.5%.
With `CC[S+]([O-])C1CCCCC1NC(=O)NC1CC(C)(C)OC1(C)C` (centres unmarked) the remaining compound was 82.3%.
With `Cn1cc(-c2cc3n(n2)CCC(=O)N3CCCC(=O)N2CCN(c3ccccn3)CC2)c2ccccc21` the remaining compound was 5.87%.
The remaining compound of `COC1(c2nc(-c3ccc(Cl)nn3)cs2)CCOCC1` is reported as 83.3%.
For `Clc1ccccc1/C=C/c1nc(-c2ccccn2)no1`, the remaining compound was 47.9%.
`CCC(C)N(CC(=O)N1CCN(c2ccc(-c3ccc(C)cc3)nn2)CC1)C(=O)c1ccccc1F` (centres unmarked) has a remaining compound of 0.16%.
`CCOC(=O)C1CCN(C(=O)CCc2ccc(C(C)(C)C)cc2)CC1` gave a remaining compound of 5.57%.
`COc1ccc(CCc2n[nH]c(NC(=O)Cn3cc(OC)c(=O)cc3C)n2)cc1` gave a remaining compound of > 100%.
With `CC(C)n1[nH]c(=O)c2c1NC(=O)CC2c1cnn(C)c1` (centres unmarked) the remaining compound was 41.8%.
`O=S1(=O)N=C(N2CCN(c3ccccc3)CC2)c2ccccc21` gave a remaining compound of 85.3%.
The remaining compound of `CCCC(=O)N(Cc1cc2ccc(C)cc2[nH]c1=O)C(C)(C)C` is reported as 49.2%.
`CCCC1CCc2c(sc(NC(=O)c3ccccc3)c2C(=O)O)C1` (centres unmarked) has a remaining compound of > 99%.
`CC1CCC(NC(=O)c2ccc(CN3C(=O)NC4(CCS(=O)(=O)CC4)C3=O)cc2)CC1` (centres unmarked) has a remaining compound of 72.9%.

Set 3
Target: Calcium/calmodulin-dependent protein kinase type II subunit alpha (CAMK2A, Homo sapiens, UniProt Q9UQM7)
Sequence of UniProt Q9UQM7 (whole entry, looked up): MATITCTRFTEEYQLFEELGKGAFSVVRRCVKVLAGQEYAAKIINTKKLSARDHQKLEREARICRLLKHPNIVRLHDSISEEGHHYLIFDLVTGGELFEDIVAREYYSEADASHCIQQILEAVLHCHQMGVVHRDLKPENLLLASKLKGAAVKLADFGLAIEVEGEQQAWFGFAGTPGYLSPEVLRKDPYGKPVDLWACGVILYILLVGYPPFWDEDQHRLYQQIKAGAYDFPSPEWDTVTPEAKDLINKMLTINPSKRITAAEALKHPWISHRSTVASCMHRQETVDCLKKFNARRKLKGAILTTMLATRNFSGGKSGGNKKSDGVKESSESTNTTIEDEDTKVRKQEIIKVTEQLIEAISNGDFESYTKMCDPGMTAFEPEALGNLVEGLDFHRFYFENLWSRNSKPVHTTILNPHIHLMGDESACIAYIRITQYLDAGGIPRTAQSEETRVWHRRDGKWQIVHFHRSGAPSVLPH
Observed: enzyme activity
Mode: inhibitor
Concentration: 10 µM
The inhibition of `COc1cc2c(cc1OC)OC(C)(C)C=C2` is reported as 3%.
`COc1cc(/C=C/CO)cc(OC)c1O[C@@H]1O[C@H](CO)[C@@H](O)[C@H](O)[C@H]1O` gave an inhibition of -26%.
The inhibition of `CC(=O)Oc1ccc(C2CC(=O)c3c(OC(C)=O)cc(OC(C)=O)cc3O2)cc1` (centres unmarked) is reported as -26%.
`C=C1C[C@@]23CC[C@H]4[C@@](C)(CCC[C@@]4(C)C(=O)O[C@@H]4O[C@H](CO)[C@@H](O)[C@H](O)[C@H]4O)[C@@H]2CC[C@]1(O[C@@H]1O[C@H](CO)[C@@H](O)[C@H](O)[C@H]1O[C@@H]1O[C@H](CO)[C@@H](O)[C@H](O)[C@H]1O)C3` has an inhibition of 22%.
The inhibition of `C=C1[C@H](CO)[C@@H](O)C[C@@H]1n1cnc2c(=O)[nH]c(N)nc21` is reported as -7%.
With `CC(=O)OCC(=O)[C@@]1(O)CC[C@H]2[C@@H]3CCC4=CC(=O)C=C[C@]4(C)[C@H]3C(=O)C[C@@]21C` the inhibition was 2%.
The inhibition of `CC1=C(C(=O)O)N2C(=O)[C@@H](NC(=O)[C@H](N)c3ccc(O)cc3)[C@H]2SC1` is reported as -10%.
With `COC(=O)c1ccc(OC)cc1` the inhibition was 7%.
`COc1cc2c(c(OC)c1OC)-c1c(cc(OC)c(OC)c1OC)C[C@H](C)[C@H](C)C2` gave an inhibition of 40%.
For `CC1CS(=O)(=O)CCN1/N=C/c1ccc([N+](=O)[O-])o1` (centres unmarked), the inhibition was -5%.
`Nc1ncnc2c1ncn2[C@@H]1O[C@H](COP(=O)(O)OP(=O)(O)O)[C@@H](O)[C@H]1O` gave an inhibition of 9%.
For `CC(=O)O[C@@H]1[C@@H](OC(C)=O)[C@@H](O)[C@H](Oc2c(-c3ccc(O)cc3)oc3cc(O)cc(O)c3c2=O)O[C@H]1C`, the inhibition was -5%.
The inhibition of `CCCCC(=O)N(Cc1ccc(-c2ccccc2-c2nn[nH]n2)cc1)[C@H](C(=O)O)C(C)C` is reported as 3%.
`O=c1cc(-c2ccc(O)cc2)oc2cc(O)c([C@@H]3O[C@H](CO)[C@@H](O)[C@H](O)[C@H]3O[C@@H]3O[C@H](CO)[C@@H](O)[C@H](O)[C@H]3O)c(O)c12` has an inhibition of -1%.
`CN1CCCC(n2nc(Cc3ccc(Cl)cc3)c3ccccc3c2=O)CC1` (centres unmarked) gave an inhibition of -2%.
With `CN(C)CCC=C1c2ccccc2C(C)(C)c2ccccc21` the inhibition was -9%.
The inhibition of `C=CC(=C)CC/C=C(\C)CCC=C(C)C` is reported as -25%.
For `C[C@H](CCC(=O)O)[C@H]1CC[C@H]2[C@@H]3[C@H](O)C[C@@H]4C[C@H](O)CC[C@]4(C)[C@H]3CC[C@]12C`, the inhibition was 0%.
`Cc1cn([C@@H]2O[C@H](CO)[C@@H](O)[C@H]2O)c(=O)nc1N` gave an inhibition of 5%.

Set 4
Target: Interleukin-1 receptor-associated kinase 1 (IRAK1, Homo sapiens, UniProt P51617)
Sequence of UniProt P51617 (whole entry, looked up): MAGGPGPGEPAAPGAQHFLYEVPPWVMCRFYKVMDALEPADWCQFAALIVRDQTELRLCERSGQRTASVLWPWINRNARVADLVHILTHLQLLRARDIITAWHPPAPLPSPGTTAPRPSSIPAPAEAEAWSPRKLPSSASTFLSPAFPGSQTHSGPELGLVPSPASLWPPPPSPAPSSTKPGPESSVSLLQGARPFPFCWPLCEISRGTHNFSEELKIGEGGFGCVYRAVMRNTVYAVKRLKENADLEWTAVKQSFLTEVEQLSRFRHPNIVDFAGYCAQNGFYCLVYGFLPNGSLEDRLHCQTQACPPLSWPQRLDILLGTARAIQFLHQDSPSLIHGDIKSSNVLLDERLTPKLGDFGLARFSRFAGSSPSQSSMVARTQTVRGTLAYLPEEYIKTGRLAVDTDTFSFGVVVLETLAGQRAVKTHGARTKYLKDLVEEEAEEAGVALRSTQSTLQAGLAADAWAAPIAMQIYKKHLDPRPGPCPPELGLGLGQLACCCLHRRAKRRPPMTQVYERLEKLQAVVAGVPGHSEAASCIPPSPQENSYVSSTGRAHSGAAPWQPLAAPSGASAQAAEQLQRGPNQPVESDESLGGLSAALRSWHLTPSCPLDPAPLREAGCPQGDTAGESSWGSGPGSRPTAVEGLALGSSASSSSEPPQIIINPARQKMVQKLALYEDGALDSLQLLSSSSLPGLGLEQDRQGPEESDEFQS
Observed: enzyme activity
Mode: inhibitor
Concentration: 0.5 µM
Baseline: control
For `CCN(CC)CCCCN1c2ccccc2Oc2ccc(Cl)cc21`, the remaining activity was 118%.
With `O=C1c2ccccc2-c2nc3nnnn3nc21` the remaining activity was 77.6%.
`O=Nc1c(-c2c(O)[nH]c3ccccc23)[nH]c2ccccc12` has a remaining activity of 68.8%.
With `CC(C)(C)c1nc2c3cc[nH]c(=O)c3c3cc(F)ccc3c2[nH]1` the remaining activity was 76.3%.
With `CC(C)n1cnc2c(Nc3cccc(Cl)c3)nc(NCCO)nc21` the remaining activity was 101%.
`CC(C)N(CCC(=O)c1ccc2ccccc2c1)Cc1ccccc1` gave a remaining activity of 102%.
The remaining activity of `COc1cc2c(Nc3ccc(Br)cc3F)ncnc2cc1OCC1CCN(C)CC1` is reported as 87.7%.
`NC(=O)c1cccc(-c2cc(Nc3ccc(OC(F)(F)F)cc3)ncn2)c1` has a remaining activity of 101%.
For `CCCCc1c(-c2ccc(O)cc2)[nH]c2nccnc12`, the remaining activity was 63.4%.
With `NC(=O)c1ccc(-c2nc(-c3ccc4c(c3)OCCO4)c(-c3ccccn3)[nH]2)cc1` the remaining activity was 96.6%.
With `N#C/C(=C(/N)SC1C=CC=CC1)c1cccc(C(O)c2ccncc2)c1` (centres unmarked) the remaining activity was 101%.
For `CNc1cc2c(Nc3cccc(Br)c3)ncnc2cn1`, the remaining activity was 85.2%.
For `O=c1c(-c2ccc(F)cc2)c(-c2ccncc2)[nH]n1-c1ccc(Cl)cc1`, the remaining activity was 103%.
For `Clc1ccc(Nc2nnc(Cc3ccncc3)c3ccccc23)cc1`, the remaining activity was 94.1%.
With `FC(F)(F)c1ccc(/C=C/c2nc(COc3ccc(CCCCn4ccnn4)cc3)co2)cc1` the remaining activity was 99.5%.
The remaining activity of `O=C1NC(=O)/C(=C/c2ccc3c(c2)OC(F)(F)O3)S1` is reported as 84.2%.
For `O=C(c1ccccc1)c1ccc(N2CCOCC2)cc1O`, the remaining activity was 103%.
`COc1cc2c(N3CCN(C(=O)Nc4ccc(OC(C)C)cc4)CC3)ncnc2cc1OCCCN1CCCCC1` gave a remaining activity of 96.1%.
With `c1cc(-c2cnn3cc(-c4ccc(OCCN5CCCCC5)cc4)cnc23)ccn1` the remaining activity was 15.3%.
`Nc1nc(Nc2ccc(S(N)(=O)=O)cc2)nn1C(=S)Nc1c(F)cccc1F` has a remaining activity of 16.9%.
For `C[C@@H](N)[C@H]1CC[C@H](C(=O)Nc2ccncc2)CC1`, the remaining activity was 102%.
`N#CC(c1ccnc(NCCc2cccnc2)n1)c1nc2ccccc2s1` (centres unmarked) gave a remaining activity of 91.8%.
`O=C(O)/C=C/c1cc(Br)c(Br)c(Br)c1Br` has a remaining activity of 94.4%.
